Measurements collected from several papers.
Compare with care: the assays were run in different laboratories. Several values in a cell are separate wells, animals, samples, runs or records. ± gives the spread as reported.

| Structure (SMILES) | tested on | assay | system | conditions | how to read | endpoint | result |
| --- | --- | --- | --- | --- | --- | --- | --- |
| CC(C)(C)c1ccc([C@@H]2COC[C@H](C3CCCC3)N2)cc1 | – | shake-flask, LC-HRMS | aqueous buffer | 16 h, pH 6.8 | – | solubility | < 4 µM |
| CNC(=O)c1ccc(-c2cnc3ncc(Cc4ccc5ncccc5c4)n3n2)cc1F | – | – | Japanese patients | oral, 400 mg, any grade | – | Dyspnea dose reduction/interruption | 1% |
| CN(C)C(=N)N=C(N)N | – | item: general and administration site disorders | healthy men | oral, dose not given, 8 days, treatment-emergent, crossover trial | – | subjects with adverse event | 0% |
| COc1cccc(OC)c1-c1cc(C(=O)NC2(C(=O)O)C3CC4CC(C3)CC2C4)nn1-c1ccc(C(=O)N(C)CCCN(C)CCCN(C)C(=O)CN2CCN(CC(=O)[O-])CCN(CC(=O)[O-])CCN(CC(=O)[O-])CC2)cc1C(C)C.[177Lu+3] (centres unmarked) | – | – | mouse, HT-29 xenograft | 168 h post injection, biodistribution | relative to: tumour over bone uptake | tumour-to-bone ratio | 4.6 |
| CCN1CCN(Cc2ccc(NC(=O)c3ccc(C)c(NC(=O)c4cncc(-c5cccs5)c4)c3)cc2C(F)(F)F)CC1 | – | – | C57BL/6 mice, epithelial lining fluid | intraperitoneal, 20 mg/kg | – | apparent clearance | 51 mL/min/kg |
| Cc1ccc(Sc2ccccc2N2CCNCC2)c(C)c1 | – | item: any TEAE | healthy adult men | oral, 20 mg daily, 12 days | – | participants with TEAE | 33.3% |
| COc1ccc2c(c1)CN(C(=O)CCN1CCC(Cc3ccccc3)CC1)CC[S@@+]2[O-] | – | telemetry | conscious male beagle dogs | intravenous, 4 mg/kg, 24 h | – | QRS duration | 34 ± 10 ms |
| Nc1ccccc1/C=C/C(=O)c1ccccc1 | – | – | toluene | 20 °C | – | Stokes shift | 92 nm |
| N#Cc1ccc(-c2cnc3ccc(-c4ccc(C(=O)N5CCOCC5)cc4)cn23)cc1 | – | item: QTcF interval | healthy volunteers | oral, 20 mg, fasted, time-averaged | – | placebo-corrected change from baseline | -5.5 ms |
| CCN1CCN(Cc2ccc(Nc3ncc(F)c(-c4cc(F)c5nc6n(c5c4)[C@H](C)CCC6)n3)nc2)CC1 | – | – | human, plasma | 500 mg multiple dosing, mean | – | CL/F | 56.1 L/h |
| C[C@H]1COC2=C1C(=O)C(=O)c1c2ccc2c1CCCC2(C)C | – | – | saline with 20% PEG400 | 24 h, 25 °C | – | equilibrium solubility | 114 µg/mL |
| CC[C@H](C)[C@H](NC(=O)CN)C(=O)N[C@@H](CC(C)C)C(=O)N[C@@H](CC(=O)O)C(=O)N[C@@H](C)C(=O)N[C@H](C(=O)N[C@@H](CC(C)C)C(=O)N[C@@H](CC(=O)O)C(=O)N[C@@H](C)C(=O)N[C@H](C(=O)N[C@@H](CCCCN)C(=O)N[C@@H](C)C(=O)N[C@H](C(=O)N[C@@H](C)C(=O)N[C@@H](CCCCN)C(=O)N[C@@H](C)C(=O)N[C@H](C(=O)N[C@@H](CCCCN)C(=O)N[C@@H](C)C(=O)N[C@@H](CCCCN)C(=O)N[C@@H](C)C(=O)NCC(N)=O)[C@@H](C)CC)[C@@H](C)CC)[C@@H](C)CC)[C@@H](C)CC | – | circular dichroism | 10 mM SDS | 100 µM | – | helical content | 49% |
| Cc1cc(NC2CCN(C(=O)OC3CCN(C(=O)/C=C/CN(C)C)C3)CC2)n2ncc(C(C)C)c2n1 (centres unmarked) | – | CTCAE v4.0, item: Vomiting | patients with advanced solid tumours | oral, dose not given, TIW, grade 3 or higher | – | patients with TEAE | 0% |
| CCOC(=O)N1C[C@@H]([C@H]2CCOC2)N[C@@H](C2CCC2)C1 | – | shake-flask, LC-HRMS | aqueous buffer | 16 h, pH 6.8 | – | solubility | > 750 µM |
| N#Cc1cccc(-c2ccc3ncc(-c4cc(F)cc(F)c4)c(N4CCC(N)CC4)c3c2)c1O | – | – | healthy male, urine | oral, 20 mg, 72 h, profiled samples | relative to: dose | total radioactivity recovered | 3.5% |
| CCc1c2c(nc3ccc(OC(=O)N4CCC(N5CCCCC5)CC4)cc13)-c1cc3c(c(=O)n1C2)COC(=O)[C@]3(O)CC | – | – | male Sprague-Dawley rat, urine | i.v., 10 mg/kg | relative to: dose | cumulative urinary excretion | 11% |
| O=C(Nc1nc2cccc(-c3ccc(CN4CCS(=O)(=O)CC4)cc3)n2n1)C1CC1 | – | item: ankle fracture | human rheumatoid arthritis patients | oral, 150 mg once daily, 4 weeks, regardless of relatedness | – | treatment-emergent adverse events | 0% |
| CC(C)(C)c1ccc([C@H]2COC[C@@H](c3ccc(C#N)cc3)N2)cc1 | – | shake-flask, LC-HRMS | aqueous buffer | 16 h, pH 6.8 | – | solubility | < 4 µM |
| COCCOc1cnc2ccn([C@H](C)c3nnc4c(F)cc(-c5cnn(C)c5)cn34)c(=O)c2c1 | – | – | cancer patients, plasma | oral, 200 mg once daily, day 1 | – | Ctrough | 416 ng/mL |
| O=c1[nH]c(=O)n([C@@H]2O[C@H](CO)[C@@H](O)[C@@H]2F)cc1CCCCC[18F] | – | – | nude mice, RG2 tumour, bone | intravenous, dose not given, 2 h | – | biodistribution | 1.57 ± 0.41 %ID/g |
| C[C@H]1CN(C(=O)CC#N)[C@]12CCN(c1ncnc3[nH]ccc13)C2 | – | – | healthy adults, plasma | oral, 3 mg single dose | – | Tmax, median or range | 48 min |
| Cc1cc(C)c(CNC(=O)c2cc(Cl)c3c(c2C)O[C@@](C)([C@H]2CC[C@H](N(C)C)CC2)O3)c(=O)[nH]1 | – | – | relapsed/refractory NHL patients | oral, 200 mg once daily, onset after cycle 1 day 1 | – | grade ≥3 adverse event Neutropenia | 8.3% |
| O=C(OC(C(F)(F)F)C(F)(F)F)N1CCN(Cc2cccc(Oc3ccccc3)c2)CC1 | – | PET blocking study | rhesus monkey, brain STR | 0.1 mg/kg, compound pretreatment, with: [18F]T-401 tracer | – | k2 | 0.065 min⁻¹ |
| C[C@@H](Nc1cc(F)cc(F)c1)c1cc(C(=O)N(C)C)cc2c(=O)cc(N3CCOCC3)oc12 | – | item: Nausea | advanced solid tumour patients | oral, dose not given, dose expansion | – | patients discontinuing for AE | 0% |

| Structure (SMILES) | tested on | assay | system | conditions | how to read | endpoint | result |
| --- | --- | --- | --- | --- | --- | --- | --- |
| N#Cc1ccc2c(c1)[C@H]1CCCN(C(=O)c3ccc4[nH]cnc4c3)[C@H]1C2 | – | – | human males | 80 mg, end of trial | – | total testosterone level | 15.1 nmol/L |
| CCc1nc(C(N)=O)c(Nc2ccc(N3CCC(N4CCN(C)CC4)CC3)c(OC)c2)nc1NC1CCOCC1 | – | – | Japanese patients, plasma | oral, 20 mg, cycle 0 day -2, single dose, mean | – | Cmax | 15.3 ng/mL |
| Cc1cc([C@H]2C[C@H]3[C@@H](CF)SC(N)=N[C@@]3(c3ccc(F)cc3F)CO2)on1 | – | – | 129/SVE wild-type mouse, male | subcutaneous, 100 mg/kg, 3 h | – | CSF concentration | 252 nM |
| FC(F)(F)c1ccc(CNc2ccc(Cc3c[nH]c4ncc(Cl)cc34)cn2)cn1 | – | item: Vomiting | patients with advanced solid tumours, all cohorts | oral, 1000 mg/day, any grade | – | treatment-related adverse events | 20% |
| CCN1/C(=C/C(C)=O)Sc2ccc(F)cc21 | – | – | cynomolgus monkey | oral, 30 mg/kg, 2 h post-dose | relative to: pre-dose | PR interval change | 97.4 ± 7.2% |
| O=C(O)c1cccc(C(=O)O)c1 | – | – | Bet/PG deep eutectic solvent | 303.0 K | – | apparent dissolution enthalpy | 15.3 kcal/mol |
| CN(CC#N)C(=O)C[C@H](Nc1nc2ccccc2[nH]1)c1cccc(C(F)(F)F)c1 | – | – | human | intravenous infusion, 2 mg/kg, 1 mg/mL formulation | – | apparent volume of distribution | 74.8 ± 12.4 L |
| CCn1c(=O)c(-c2cc(NC(=O)Nc3ccccc3)c(F)cc2Br)cc2cnc(NC)cc21 | – | item: nervous system disorders | healthy human, matched to severe hepatic impairment | oral, 50 mg single dose | – | participants with drug-related TEAE | 0% |
| O=c1[nH]c(=O)n([C@H]2C[C@H](O)[C@@H](CO)O2)cc1CCC[18F] | – | – | male CD-1 nu/nu mice, RG2 tumour, brain | intravenous, dose not given, 2 h | – | biodistribution | 0.12 ± 0.04 %ID/g |
| NC(=O)N1c2ccccc2C=Cc2ccccc21 | – | item: dry mouth | human male | oral, dose not given, AEs, treatment-related, on drug, CTCAE | – | adverse events incidence | 0% |
| Cn1cc(-c2ccc(-c3cncc(Cl)c3N3CCC4(CCNC4=O)CC3)cc2)cn1 | COLO 205 | gene expression, microarray, item: DHRS12 mRNA | – | concentration not given, 6 h | relative to: untreated cells | log2 fold change | 2.16 |
| N#CN1C[C@H](n2nc(-c3ccc(Oc4ccc(Cl)cn4)cc3)c(C(N)=O)c2N)CCC12CC2 | – | – | human, fasted, plasma | oral, 600 mg, i=12 | – | AUC(0-t), geometric mean | 19900 ng·h/mL |
| Cc1ccc(S(=O)(=O)n2cc3c4c2C(=O)C(NCc2ccc(Cl)cc2)=CC4=NCC3)cc1 | – | – | Sprague-Dawley rat, plasma | intravenous, 5 mg/kg, two-compartment model | – | central compartment volume | 0.007 L/kg and 0.005 L/kg and 0.003 L/kg |
| CC/C(=C(/c1ccc(OCCNC)cc1)c1ccc(B2OC(C)(C)C(C)(C)O2)cc1)c1ccccc1 | – | – | C57BL/6 mouse | dose not given, within 24 h | – | conversion to endoxifen | 80 to 90% |
| Cc1ccc([C@@H]2O[C@H](CO)[C@@H](O)[C@H](O)[C@H]2O)cc1Cc1ccc(-c2ccc(F)cc2)s1 | – | – | Japanese type 2 diabetes patients | 400 mg, day 6, 24 h urine collection | relative to: baseline | urinary sodium excretion change | -12.7 mEq |
| CCCOc1ccc(-c2ccc(C#N)cc2)cc1 | – | – | Sprague-Dawley rat, female, placenta | 10 ng/mL in perfusate, 50 (unit not given), low dose, mixture of 21 LCMs | – | placental accumulation | 29.1 ± 39.4 ng/g |
| O=C(O)CCCCCCCCC(=O)O | – | – | human, plasma | endogenous baseline diurnal | – | Cmin | 21.7 ± 0.9 nM |
| Cl.NCCCCCCN1C(=O)/C(=C2/C(=O)N(Cc3ccc(F)cc3)c3ccccc32)SC1=S | – | HPLC | 50 mM phosphate buffer | 10 µM, 48 h, pH 7 | – | concentration decrease | ~42% |
| COc1cccc(-c2n[nH]c(SCc3ccccn3)n2)c1OC | – | – | Sprague-Dawley rats, both sexes | oral dietary, 30 mg/kg/day, day 7, 0 h | – | plasma concentration | 192 ng/mL |
| CN1CCN(c2cccc3c2CCN(C(=O)/C=C/c2c(-n4cnnn4)ccc(Cl)c2F)[C@@H]3C(=O)Nc2ccc(C(=O)O)cc2)C(=O)C1 | – | – | healthy human subjects | intravenous infusion, 9 mg/h, 5 days | – | discontinuations due to adverse events | 0% |
| CNC(=O)c1ccc(-c2cnc3ncc(Cc4ccc5ncccc5c4)n3n2)cc1F | – | item: Hypoalbuminemia | gastric cancer patients | oral, 600 mg twice daily, expansion cohort, grade 3-4 | – | patients with adverse event | 0% |
| COc1ccc([C@@H](O)c2cc(-c3ncnc4cc(N5CCOCC5)ccc34)c(F)cc2Cl)nn1 | – | – | locally advanced rectal cancer | oral, 100 mg, with: capecitabine and radiotherapy | – | rectal haemorrhage TEAE | 0% |
| CC(C(=O)NCC(=O)NCC(CNC(=O)CNC(=O)C(C)N1CCN(CC(=O)[O-])CCN(CC(=O)[O-])CCN(CC(=O)[O-])CC1)(CNC(=O)CNC(=O)C(C)N1CCN(CC(=O)[O-])CCN(CC(=O)[O-])CCN(CC(=O)[O-])CC1)CNC(=O)CNC(=O)C(C)N1CCN(CC(=O)[O-])CCN(CC(=O)[O-])CCN(CC(=O)[O-])CC1)N1CCN(CC(=O)[O-])CCN(CC(=O)[O-])CCN(CC(=O)[O-])CC1.[Gd+3].[Gd+3].[Gd+3].[Gd+3] (centres unmarked) | – | – | cynomolgus monkey, pons | dose not given, day 5 | – | lanthanide concentration | 0.031 ± 0.02 nmol/g |

Some of these lines once more:
| Structure (SMILES) | tested on | assay | system | conditions | how to read | endpoint | result |
| --- | --- | --- | --- | --- | --- | --- | --- |
| N#Cc1ccc2c(c1)[C@H]1CCCN(C(=O)c3ccc4[nH]cnc4c3)[C@H]1C2 | – | – | human males | 80 mg, end of trial | – | total testosterone level | 15.1 nmol/L |
| CCc1nc(C(N)=O)c(Nc2ccc(N3CCC(N4CCN(C)CC4)CC3)c(OC)c2)nc1NC1CCOCC1 | – | – | Japanese patients, plasma | oral, 20 mg, cycle 0 day -2, single dose, mean | – | Cmax | 15.3 ng/mL |
| Cc1cc([C@H]2C[C@H]3[C@@H](CF)SC(N)=N[C@@]3(c3ccc(F)cc3F)CO2)on1 | – | – | 129/SVE wild-type mouse, male | subcutaneous, 100 mg/kg, 3 h | – | CSF concentration | 252 nM |
| FC(F)(F)c1ccc(CNc2ccc(Cc3c[nH]c4ncc(Cl)cc34)cn2)cn1 | – | item: Vomiting | patients with advanced solid tumours, all cohorts | oral, 1000 mg/day, any grade | – | treatment-related adverse events | 20% |
